# Assay results collected from several papers.
# Parts stem from different laboratories: compare values within a part only.
# Chain of UniProt O60674 (whole entry, looked up): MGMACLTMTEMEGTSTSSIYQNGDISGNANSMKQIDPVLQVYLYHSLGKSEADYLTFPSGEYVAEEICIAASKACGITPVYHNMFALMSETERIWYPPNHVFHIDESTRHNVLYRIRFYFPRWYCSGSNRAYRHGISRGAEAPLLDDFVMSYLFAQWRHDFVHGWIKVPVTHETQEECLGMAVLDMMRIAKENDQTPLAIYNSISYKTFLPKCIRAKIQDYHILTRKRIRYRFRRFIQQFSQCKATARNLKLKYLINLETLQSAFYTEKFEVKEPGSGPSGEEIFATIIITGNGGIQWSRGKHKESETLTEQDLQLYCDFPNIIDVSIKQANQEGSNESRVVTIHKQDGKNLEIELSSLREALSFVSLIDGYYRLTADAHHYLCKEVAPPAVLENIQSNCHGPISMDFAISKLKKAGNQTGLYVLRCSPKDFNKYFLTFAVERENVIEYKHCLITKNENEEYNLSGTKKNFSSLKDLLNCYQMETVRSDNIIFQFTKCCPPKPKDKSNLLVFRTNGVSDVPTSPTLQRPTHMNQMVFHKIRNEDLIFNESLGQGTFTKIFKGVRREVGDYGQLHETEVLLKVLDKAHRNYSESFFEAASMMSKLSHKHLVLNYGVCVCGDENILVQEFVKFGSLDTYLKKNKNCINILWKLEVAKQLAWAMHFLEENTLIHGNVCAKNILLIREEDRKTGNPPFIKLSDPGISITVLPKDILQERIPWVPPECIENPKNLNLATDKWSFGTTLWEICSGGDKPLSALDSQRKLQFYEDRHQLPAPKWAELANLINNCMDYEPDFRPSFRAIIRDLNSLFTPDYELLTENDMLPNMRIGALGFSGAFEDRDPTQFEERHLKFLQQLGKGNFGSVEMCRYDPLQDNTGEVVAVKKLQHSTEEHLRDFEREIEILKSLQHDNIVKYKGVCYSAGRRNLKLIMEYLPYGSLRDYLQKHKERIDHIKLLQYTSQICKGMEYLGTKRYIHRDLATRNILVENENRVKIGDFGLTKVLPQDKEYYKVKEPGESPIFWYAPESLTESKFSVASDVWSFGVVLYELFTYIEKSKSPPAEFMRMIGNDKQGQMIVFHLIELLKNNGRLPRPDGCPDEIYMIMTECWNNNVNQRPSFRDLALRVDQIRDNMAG
# Chain of UniProt Q13315 (whole entry, looked up): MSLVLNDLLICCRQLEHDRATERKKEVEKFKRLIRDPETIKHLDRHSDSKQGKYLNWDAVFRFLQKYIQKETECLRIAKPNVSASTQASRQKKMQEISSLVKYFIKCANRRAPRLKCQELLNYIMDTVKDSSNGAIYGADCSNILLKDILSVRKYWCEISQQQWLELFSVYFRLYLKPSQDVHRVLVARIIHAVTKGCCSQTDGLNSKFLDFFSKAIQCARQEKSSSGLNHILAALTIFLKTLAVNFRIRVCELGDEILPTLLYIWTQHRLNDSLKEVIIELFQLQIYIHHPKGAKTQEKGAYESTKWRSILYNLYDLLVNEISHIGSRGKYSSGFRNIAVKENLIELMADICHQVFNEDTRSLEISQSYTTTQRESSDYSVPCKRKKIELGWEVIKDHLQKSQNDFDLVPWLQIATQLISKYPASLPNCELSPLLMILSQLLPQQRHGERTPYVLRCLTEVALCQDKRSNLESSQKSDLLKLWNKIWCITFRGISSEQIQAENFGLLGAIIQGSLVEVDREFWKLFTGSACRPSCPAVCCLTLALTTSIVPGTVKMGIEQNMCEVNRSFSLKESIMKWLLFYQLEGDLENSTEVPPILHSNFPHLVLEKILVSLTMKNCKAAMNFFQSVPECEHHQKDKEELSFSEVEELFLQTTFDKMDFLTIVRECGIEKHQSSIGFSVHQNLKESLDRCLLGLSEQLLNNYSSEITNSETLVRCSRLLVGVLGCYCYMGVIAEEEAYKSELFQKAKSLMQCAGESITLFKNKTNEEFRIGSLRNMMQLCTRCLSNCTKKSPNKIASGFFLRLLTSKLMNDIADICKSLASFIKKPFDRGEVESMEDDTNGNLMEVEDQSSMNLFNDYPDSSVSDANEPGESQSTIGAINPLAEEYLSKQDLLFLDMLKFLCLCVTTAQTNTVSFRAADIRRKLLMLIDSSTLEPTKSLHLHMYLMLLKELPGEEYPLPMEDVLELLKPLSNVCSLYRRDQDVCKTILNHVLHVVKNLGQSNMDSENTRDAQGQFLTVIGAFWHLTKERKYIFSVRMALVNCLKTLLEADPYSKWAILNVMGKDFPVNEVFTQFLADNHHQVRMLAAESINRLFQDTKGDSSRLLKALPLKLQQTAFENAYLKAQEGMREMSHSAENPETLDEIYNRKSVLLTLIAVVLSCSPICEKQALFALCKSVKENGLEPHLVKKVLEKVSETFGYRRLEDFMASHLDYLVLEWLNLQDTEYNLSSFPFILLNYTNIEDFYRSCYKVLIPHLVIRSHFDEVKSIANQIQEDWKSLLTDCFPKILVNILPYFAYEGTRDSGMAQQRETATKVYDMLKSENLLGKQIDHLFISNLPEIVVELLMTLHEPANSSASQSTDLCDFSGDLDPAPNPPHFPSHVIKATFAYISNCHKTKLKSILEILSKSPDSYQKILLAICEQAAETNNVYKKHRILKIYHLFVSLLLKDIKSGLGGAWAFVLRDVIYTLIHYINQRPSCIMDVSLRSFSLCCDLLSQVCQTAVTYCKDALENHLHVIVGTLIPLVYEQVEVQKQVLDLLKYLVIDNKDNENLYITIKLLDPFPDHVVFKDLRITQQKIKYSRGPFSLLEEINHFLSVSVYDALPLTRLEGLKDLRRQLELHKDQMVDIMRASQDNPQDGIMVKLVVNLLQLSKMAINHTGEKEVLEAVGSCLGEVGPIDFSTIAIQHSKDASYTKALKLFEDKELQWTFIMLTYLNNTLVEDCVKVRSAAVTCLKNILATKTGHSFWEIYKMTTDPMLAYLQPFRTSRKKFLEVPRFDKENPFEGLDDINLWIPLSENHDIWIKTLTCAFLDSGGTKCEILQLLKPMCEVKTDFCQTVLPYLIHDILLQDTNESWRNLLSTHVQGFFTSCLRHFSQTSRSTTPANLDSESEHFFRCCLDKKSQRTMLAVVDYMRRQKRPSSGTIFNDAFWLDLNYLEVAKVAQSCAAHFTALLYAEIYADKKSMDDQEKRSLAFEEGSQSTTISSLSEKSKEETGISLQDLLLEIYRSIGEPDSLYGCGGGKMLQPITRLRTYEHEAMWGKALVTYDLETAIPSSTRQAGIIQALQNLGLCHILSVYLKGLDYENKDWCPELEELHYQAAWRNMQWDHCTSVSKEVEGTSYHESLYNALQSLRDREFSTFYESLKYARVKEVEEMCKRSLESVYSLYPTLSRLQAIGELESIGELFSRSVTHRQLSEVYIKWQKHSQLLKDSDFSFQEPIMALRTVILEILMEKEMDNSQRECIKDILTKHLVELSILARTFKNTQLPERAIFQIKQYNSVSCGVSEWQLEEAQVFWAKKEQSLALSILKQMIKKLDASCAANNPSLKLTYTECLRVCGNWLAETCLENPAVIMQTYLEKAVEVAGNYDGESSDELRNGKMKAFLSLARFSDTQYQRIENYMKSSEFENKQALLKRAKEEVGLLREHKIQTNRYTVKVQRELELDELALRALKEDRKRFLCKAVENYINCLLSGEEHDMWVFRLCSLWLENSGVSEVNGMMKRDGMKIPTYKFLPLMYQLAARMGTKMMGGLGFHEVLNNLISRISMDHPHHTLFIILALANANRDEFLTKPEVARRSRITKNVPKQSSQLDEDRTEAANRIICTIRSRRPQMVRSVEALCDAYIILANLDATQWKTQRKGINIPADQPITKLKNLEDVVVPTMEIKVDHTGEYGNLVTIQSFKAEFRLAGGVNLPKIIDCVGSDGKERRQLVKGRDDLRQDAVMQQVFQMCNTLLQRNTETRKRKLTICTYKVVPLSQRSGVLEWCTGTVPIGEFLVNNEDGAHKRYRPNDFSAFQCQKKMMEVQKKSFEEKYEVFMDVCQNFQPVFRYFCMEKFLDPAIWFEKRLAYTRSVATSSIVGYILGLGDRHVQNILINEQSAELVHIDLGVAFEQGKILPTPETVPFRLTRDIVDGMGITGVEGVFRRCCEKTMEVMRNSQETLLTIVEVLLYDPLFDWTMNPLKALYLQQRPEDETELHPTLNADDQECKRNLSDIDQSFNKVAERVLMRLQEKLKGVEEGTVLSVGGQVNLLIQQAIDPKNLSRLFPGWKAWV
# Chain of UniProt Q9UKS7 (whole entry, looked up): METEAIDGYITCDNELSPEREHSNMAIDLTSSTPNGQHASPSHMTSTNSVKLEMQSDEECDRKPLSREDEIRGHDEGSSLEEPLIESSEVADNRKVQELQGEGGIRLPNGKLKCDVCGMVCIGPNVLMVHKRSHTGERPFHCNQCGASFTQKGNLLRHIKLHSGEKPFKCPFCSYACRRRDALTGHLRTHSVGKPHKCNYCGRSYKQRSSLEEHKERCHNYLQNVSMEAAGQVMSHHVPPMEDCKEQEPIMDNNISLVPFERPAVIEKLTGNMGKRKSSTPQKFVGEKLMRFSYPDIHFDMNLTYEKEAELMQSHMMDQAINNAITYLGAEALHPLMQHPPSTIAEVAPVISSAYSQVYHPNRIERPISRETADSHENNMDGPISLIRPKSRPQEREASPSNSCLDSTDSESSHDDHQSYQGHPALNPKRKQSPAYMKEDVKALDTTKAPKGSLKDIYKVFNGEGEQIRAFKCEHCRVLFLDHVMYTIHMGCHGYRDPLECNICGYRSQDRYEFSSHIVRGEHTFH
# Chain of UniProt Q96SW2 (whole entry, looked up): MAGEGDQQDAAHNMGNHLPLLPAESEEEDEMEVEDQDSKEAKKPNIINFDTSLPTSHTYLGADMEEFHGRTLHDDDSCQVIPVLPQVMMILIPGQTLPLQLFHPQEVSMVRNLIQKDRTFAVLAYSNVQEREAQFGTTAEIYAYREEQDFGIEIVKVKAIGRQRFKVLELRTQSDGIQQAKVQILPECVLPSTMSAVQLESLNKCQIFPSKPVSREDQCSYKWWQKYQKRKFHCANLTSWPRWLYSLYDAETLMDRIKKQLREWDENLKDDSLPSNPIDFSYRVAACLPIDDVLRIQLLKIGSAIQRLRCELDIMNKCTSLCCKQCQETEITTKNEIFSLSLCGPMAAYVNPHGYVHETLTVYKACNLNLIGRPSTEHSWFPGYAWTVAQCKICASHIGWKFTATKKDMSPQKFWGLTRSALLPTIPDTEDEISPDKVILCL

# Set 1
# Structure (SMILES): COC(=O)c1cc(N(C)C(=O)c2ccn3ncc(-c4ccc(C(=O)O)cc4)c3c2)ccc1Cl
target,test,IC50 [µM]
"Serine-protein kinase ATM (ATM, Homo sapiens, UniProt Q13315)","enzyme activity, inhibitor",10.2
"Calcium/calmodulin-dependent protein kinase type II subunit delta (CAMK2D, Homo sapiens, UniProt Q13557)","enzyme activity, inhibitor",4.25
"Muscarinic acetylcholine receptor M1 (CHRM1, Homo sapiens, UniProt P11229)",cell-free assay,> 30
"Cyclin-dependent kinase 2 (CDK2, Homo sapiens, UniProt P24941)","enzyme activity, inhibitor",21.8
"Prostaglandin G/H synthase 2 (PTGS2, Homo sapiens, UniProt P35354)","cell-free assay, inhibitor",> 30
"ALK tyrosine kinase receptor (ALK, Homo sapiens, UniProt Q9UM73)","enzyme activity, inhibitor",> 30
"Mu-type opioid receptor (OPRM1, Homo sapiens, UniProt P35372)",cell-free assay,> 30
"Tyrosine-protein kinase JAK2 (JAK2, Homo sapiens, UniProt O60674)","enzyme activity, inhibitor",> 30
"Aurora kinase A (AURKA, Homo sapiens, UniProt O14965)","enzyme activity, inhibitor",10

# Set 2 — read-out: AlphaScreen signal; technique: AlphaScreen counter screen; sample: His6 peptide without bromodomain; concentration: 50 µM; setting: assay interference check
SMILES,inhibition [%]
Cc1ccc(NC=C2C(=O)NC(=O)N(C)C2=O)cc1,10.1
COc1ccc2c(c1)/C(=C/c1cnc[nH]1)C(=O)N2,30.6
COC(=O)C1(O)CC2OC1(C)n1c3ccccc3c3c4c(c5c6ccccc6n2c5c31)C(=O)NC4 (stereo not drawn),27.6

# Set 3 — Compound: COc1ccc2c(c1)/C(=C/c1cnc[nH]1)C(=O)N2; read-out: enzyme activity; mode: inhibitor; concentration: 0.5 µM; reference: control
target,remaining activity
"Tyrosine-protein kinase JAK2 (JAK2, Homo sapiens, UniProt O60674)",88.9%
"Serine/threonine-protein kinase BRSK2 (BRSK2, Homo sapiens, UniProt Q8IWQ3)",61.7%
"Cyclin-dependent kinase 5, with p35 (CDK5, Homo sapiens, UniProt Q00535)",-0.369%
"Tyrosine-protein kinase Fes/Fps (FES, Homo sapiens, UniProt P07332)",97%

# Mixed results
SMILES,target,test,system,conditions,endpoint,result
C[C@H](NC(=O)c1cnc2n1[C@](C)(Cc1ccc(C#N)cc1)C(=O)N2c1cc(Cl)c(F)c(Cl)c1)C(=O)NC1(c2ccccn2)CC1,"5-hydroxytryptamine receptor 2A (HTR2A, Homo sapiens, UniProt P28223)","binding, radioligand binding",,10 µM,inhibition,9.3%
O=C1CCC(N2Cc3c(ccc4c3OCC43CCCN(Cc4ccccc4)CC3)C2=O)C(=O)N1 (stereo not drawn),"CRBN/Zinc finger protein Helios (Homo sapiens, UniProt Q96SW2+Q9UKS7)","degrader, HiBiT",HEK293,13.72 nM,protein remaining,95.5%

# A few entries again (set 1):
target,test,IC50 [µM]
"Mu-type opioid receptor (OPRM1, Homo sapiens, UniProt P35372)",cell-free assay,> 30
